Experimental data pooled from the literature.
Parts stem from different laboratories: compare values within a part only. “And” joins repeats or separate records; there may be more than shown.
Chain of UniProt P07949 (whole entry, unmodified, looked up): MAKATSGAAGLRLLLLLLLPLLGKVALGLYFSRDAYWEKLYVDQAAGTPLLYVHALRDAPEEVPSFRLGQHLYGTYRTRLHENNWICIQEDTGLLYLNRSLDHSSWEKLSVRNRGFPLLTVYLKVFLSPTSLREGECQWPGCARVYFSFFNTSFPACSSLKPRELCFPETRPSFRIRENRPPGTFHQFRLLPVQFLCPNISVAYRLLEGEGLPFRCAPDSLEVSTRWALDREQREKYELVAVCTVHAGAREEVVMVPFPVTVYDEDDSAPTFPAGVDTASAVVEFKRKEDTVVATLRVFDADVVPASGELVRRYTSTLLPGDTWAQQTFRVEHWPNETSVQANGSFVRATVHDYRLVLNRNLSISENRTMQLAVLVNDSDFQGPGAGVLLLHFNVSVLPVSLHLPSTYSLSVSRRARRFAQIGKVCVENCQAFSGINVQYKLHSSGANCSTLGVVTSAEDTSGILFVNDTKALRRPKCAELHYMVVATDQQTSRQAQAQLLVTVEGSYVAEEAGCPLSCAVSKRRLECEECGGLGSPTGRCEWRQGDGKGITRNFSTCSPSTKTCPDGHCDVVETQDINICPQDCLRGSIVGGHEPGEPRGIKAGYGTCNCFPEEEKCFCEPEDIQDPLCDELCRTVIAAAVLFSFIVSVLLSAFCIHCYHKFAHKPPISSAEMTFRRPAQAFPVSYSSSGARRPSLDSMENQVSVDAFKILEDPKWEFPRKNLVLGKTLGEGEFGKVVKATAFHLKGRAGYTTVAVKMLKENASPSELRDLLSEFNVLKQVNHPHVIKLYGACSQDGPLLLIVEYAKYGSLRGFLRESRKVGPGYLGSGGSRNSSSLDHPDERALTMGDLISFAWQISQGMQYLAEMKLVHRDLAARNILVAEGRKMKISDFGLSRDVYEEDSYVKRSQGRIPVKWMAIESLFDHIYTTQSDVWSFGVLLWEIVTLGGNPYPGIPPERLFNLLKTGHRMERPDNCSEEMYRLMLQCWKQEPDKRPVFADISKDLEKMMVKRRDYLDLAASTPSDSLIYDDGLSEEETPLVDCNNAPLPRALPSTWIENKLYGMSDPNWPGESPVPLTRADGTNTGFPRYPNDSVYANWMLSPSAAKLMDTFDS
Chain of UniProt P37173 (whole entry, looked up): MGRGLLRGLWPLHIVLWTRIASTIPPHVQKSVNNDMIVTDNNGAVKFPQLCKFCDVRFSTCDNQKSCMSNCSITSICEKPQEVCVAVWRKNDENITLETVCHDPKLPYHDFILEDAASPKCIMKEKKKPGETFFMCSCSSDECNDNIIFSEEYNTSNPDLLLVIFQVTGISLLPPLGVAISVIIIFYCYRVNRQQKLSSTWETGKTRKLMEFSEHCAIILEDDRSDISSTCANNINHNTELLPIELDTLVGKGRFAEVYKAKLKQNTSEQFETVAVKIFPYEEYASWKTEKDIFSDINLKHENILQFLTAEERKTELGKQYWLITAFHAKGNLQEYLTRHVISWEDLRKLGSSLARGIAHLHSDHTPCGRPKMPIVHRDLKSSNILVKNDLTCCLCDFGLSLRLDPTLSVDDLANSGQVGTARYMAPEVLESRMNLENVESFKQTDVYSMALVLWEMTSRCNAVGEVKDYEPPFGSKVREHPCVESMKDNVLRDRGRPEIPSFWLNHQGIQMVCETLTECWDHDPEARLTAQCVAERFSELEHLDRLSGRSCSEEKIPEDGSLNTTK
Chain of UniProt Q13131 (whole entry, looked up): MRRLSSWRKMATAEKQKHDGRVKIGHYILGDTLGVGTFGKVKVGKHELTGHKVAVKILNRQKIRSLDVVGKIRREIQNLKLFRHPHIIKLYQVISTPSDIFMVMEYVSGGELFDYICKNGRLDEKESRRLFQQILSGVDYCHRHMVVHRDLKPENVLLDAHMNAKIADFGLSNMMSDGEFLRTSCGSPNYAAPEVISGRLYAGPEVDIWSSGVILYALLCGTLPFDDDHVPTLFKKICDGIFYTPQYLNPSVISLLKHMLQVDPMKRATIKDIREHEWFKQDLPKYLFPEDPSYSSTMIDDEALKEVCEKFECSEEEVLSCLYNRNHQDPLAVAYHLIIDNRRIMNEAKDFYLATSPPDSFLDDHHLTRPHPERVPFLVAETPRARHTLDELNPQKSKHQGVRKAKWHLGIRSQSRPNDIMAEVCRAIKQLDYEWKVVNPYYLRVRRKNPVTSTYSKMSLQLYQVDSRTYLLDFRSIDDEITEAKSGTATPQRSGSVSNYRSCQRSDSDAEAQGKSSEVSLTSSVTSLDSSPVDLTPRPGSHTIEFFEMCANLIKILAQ
Chain of UniProt O95747 (whole entry, looked up): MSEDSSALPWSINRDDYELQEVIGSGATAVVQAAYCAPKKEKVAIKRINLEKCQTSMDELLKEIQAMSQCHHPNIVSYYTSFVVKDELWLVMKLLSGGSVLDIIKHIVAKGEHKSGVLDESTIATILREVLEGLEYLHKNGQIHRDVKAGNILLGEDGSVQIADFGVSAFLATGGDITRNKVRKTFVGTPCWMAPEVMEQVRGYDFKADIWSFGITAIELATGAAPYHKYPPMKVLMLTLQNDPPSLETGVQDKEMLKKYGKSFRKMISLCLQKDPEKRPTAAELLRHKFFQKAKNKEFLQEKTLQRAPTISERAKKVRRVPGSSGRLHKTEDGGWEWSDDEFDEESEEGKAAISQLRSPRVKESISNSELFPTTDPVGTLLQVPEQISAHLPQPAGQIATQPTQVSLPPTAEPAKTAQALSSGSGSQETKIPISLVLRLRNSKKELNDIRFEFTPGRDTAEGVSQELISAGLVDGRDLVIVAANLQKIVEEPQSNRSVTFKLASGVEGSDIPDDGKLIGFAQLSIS
Chain of UniProt Q12866 (whole entry, looked up): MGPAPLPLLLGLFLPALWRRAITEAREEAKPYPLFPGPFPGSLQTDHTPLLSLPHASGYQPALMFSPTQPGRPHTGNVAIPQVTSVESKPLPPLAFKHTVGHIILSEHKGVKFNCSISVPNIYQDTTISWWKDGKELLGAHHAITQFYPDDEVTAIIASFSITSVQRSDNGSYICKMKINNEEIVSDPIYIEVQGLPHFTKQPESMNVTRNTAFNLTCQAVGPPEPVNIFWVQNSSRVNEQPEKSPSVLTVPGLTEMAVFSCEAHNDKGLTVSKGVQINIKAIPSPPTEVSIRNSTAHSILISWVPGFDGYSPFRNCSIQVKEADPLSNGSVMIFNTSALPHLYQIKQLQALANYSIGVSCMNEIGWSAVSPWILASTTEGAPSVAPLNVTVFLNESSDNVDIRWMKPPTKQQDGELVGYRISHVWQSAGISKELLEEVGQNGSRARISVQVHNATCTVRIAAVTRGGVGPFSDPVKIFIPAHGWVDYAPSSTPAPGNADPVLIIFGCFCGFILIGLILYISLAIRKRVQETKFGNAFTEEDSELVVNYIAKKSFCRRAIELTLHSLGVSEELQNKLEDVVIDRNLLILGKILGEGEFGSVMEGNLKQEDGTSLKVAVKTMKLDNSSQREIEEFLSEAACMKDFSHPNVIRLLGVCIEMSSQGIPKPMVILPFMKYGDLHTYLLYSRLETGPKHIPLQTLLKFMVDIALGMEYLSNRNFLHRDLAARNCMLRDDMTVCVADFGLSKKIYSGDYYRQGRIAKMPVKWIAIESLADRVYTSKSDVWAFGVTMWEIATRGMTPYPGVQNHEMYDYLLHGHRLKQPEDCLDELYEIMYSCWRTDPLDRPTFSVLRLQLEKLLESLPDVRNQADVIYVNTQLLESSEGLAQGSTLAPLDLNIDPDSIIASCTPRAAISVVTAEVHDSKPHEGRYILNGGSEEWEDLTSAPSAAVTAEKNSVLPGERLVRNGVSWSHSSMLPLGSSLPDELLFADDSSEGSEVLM
Chain of UniProt P35626 (whole entry, looked up): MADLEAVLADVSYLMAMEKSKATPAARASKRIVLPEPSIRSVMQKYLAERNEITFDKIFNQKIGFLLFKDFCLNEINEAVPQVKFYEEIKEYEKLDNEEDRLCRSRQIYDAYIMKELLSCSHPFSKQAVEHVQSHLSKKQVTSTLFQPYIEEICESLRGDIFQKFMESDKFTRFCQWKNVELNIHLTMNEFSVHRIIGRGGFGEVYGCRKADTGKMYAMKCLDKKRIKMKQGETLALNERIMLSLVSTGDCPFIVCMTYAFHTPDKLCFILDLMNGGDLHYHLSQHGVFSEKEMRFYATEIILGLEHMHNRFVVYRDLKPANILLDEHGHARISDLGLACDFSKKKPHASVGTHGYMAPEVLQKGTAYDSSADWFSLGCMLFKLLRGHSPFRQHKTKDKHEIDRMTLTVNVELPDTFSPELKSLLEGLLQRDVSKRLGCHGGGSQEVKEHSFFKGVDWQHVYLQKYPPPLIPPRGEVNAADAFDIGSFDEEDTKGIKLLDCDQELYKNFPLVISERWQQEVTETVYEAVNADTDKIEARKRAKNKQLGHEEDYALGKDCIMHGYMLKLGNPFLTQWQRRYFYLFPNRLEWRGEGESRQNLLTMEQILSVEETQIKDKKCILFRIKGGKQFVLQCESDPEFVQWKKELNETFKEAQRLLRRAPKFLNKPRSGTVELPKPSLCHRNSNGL

Series 1
Structure (SMILES): O=C1c2ccccc2-c2n[nH]c3cccc1c23
Read-out: enzyme activity
Action: inhibitor
Tested at: 0.5 µM
Relative to: control
target	remaining activity [%]
TGF-beta receptor type-2 (TGFBR2, Homo sapiens, UniProt P37173)	105
Mitogen-activated protein kinase 9 (MAPK9, Homo sapiens, UniProt P45984)	36.4
cGMP-dependent protein kinase 1, isoform beta (PRKG1, Homo sapiens, UniProt Q13976)	100
Protein kinase C beta type, isoform beta-I (PRKCB, Homo sapiens, UniProt P05771)	111
Cyclin-dependent kinase 4, with cyclin D1 (CDK4, Homo sapiens, UniProt P11802)	96.3
Calcium/calmodulin-dependent protein kinase kinase 2 (CAMKK2, Homo sapiens, UniProt Q96RR4)	65.5
Death-associated protein kinase 1 (DAPK1, Homo sapiens, UniProt P53355)	81.5
Tyrosine-protein kinase Lyn, isoform B (LYN, Homo sapiens, UniProt P07948)	96.6
cAMP-dependent protein kinase catalytic subunit alpha (PRKACA, Homo sapiens, UniProt P17612)	98.6
Serine/threonine-protein kinase OSR1 (OXSR1, Homo sapiens, UniProt O95747)	97.4
Protein kinase C alpha type (PRKCA, Homo sapiens, UniProt P17252)	76.1
Serine/threonine-protein kinase Chk2 (CHEK2, Homo sapiens, UniProt O96017)	34.1
Serine/threonine-protein kinase 10 (STK10, Homo sapiens, UniProt O94804)	74.7
TGF-beta receptor type-1 (TGFBR1, Homo sapiens, UniProt P36897)	99.2
Mitogen-activated protein kinase kinase kinase 3 (MAP3K3, Homo sapiens, UniProt Q99759)	105
Serine/threonine-protein kinase Nek2 (NEK2, Homo sapiens, UniProt P51955)	104
STE20/SPS1-related proline-alanine-rich protein kinase (STK39, Homo sapiens, UniProt Q9UEW8)	82.8
Death-associated protein kinase 2 (DAPK2, Homo sapiens, UniProt Q9UIK4)	109
Calcium/calmodulin-dependent protein kinase type II subunit delta (CAMK2D, Homo sapiens, UniProt Q13557)	83.4
G protein-coupled receptor kinase 3 (GRK3, Homo sapiens, UniProt P35626)	100

Series 2
SMILES: c1ccc(Oc2ccc(Nc3c4c(nc5ccccc35)CCC4)cc2)cc1
Organism: Leishmania donovani
Strain: DD8
test	test system	conditions	inhibition
parasite killing	promastigotes	66.66 µM, 72 h	100% and 99%
parasite killing	intracellular amastigotes	2 µM, 96 h	85% and 84% and 86%
parasite killing	promastigotes	0.66 µM, 96 h	59% and 52% and 60%
parasite killing	intracellular amastigotes	8 µM, 24 h	62% and 64% and 70%
parasite killing	intracellular amastigotes	0.2 µM, 96 h	33% and 22% and 24%
parasite killing	intracellular amastigotes	80 µM, 96 h	100%
parasite killing	intracellular amastigotes	20 µM, 48 h	100%
parasite killing	intracellular amastigotes	0.4 µM, 72 h	48% and 47% and 41%
parasite viability, resazurin	promastigotes	1.66 µM	81% and 84% and 80%
parasite killing	promastigotes	3.33 µM, 72 h	87% and 93% and 90%
parasite killing	intracellular amastigotes	0.08 µM, 96 h	19% and 16%
parasite killing	intracellular amastigotes	20 µM, 96 h	100%

Series 3
Target: D(3) dopamine receptor (DRD3, Homo sapiens, UniProt P35462)
Chain of UniProt P35462 (whole entry, looked up): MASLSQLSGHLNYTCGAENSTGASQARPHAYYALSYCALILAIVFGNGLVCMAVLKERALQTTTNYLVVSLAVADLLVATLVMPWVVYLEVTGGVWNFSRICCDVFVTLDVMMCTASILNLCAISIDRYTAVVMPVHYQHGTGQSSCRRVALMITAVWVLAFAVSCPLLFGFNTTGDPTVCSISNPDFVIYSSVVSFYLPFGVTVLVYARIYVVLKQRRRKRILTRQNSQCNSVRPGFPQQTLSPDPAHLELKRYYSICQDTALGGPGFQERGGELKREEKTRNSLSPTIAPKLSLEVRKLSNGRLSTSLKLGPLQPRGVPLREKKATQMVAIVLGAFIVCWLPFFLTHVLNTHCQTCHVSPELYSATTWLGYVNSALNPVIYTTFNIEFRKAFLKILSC
Read-out: ligand displacement
Tested at: 10 µM
SMILES	inhibition
C[C@H](c1ccnc(Nc2nc3ccc(-c4cc(N(C)C)ncn4)cc3[nH]2)c1)N1CCN(C(=O)CC(F)(F)F)CC1	35.5%
CNC(=O)Nc1ccc2c(c1)CC[C@]21OC(=O)N(CC(=O)N(Cc2ccc(F)cc2)[C@@H](C)C(F)(F)F)C1=O	1.52%
Nc1cnc(N2CCc3cc(S(=O)(=O)Nc4c(F)cc(Cl)cc4F)cc(N4CCCC4=O)c32)nc1	7.41%
Cc1ccccc1Oc1cc(-n2c(=O)cc(C(F)(F)F)[nH]c2=O)c2ccccc2c1Cl	8.85%
c1ccc(C2CCN(c3cnc4c(N5CCOCC5)nccn34)CC2)cc1	-6.13%
COc1cc(N[C@@H]2CCCC[C@]2(O)C(F)(F)F)ccc1F	-0.75%
CCC(=NO)C(C)=Cc1ccc(F)c(C)c1	8.6%
Cn1cc(Cl)c2c(Oc3c(F)cc(Nc4cc(Cl)nc(N)n4)cc3F)ccnc21	-19.2%
Cn1nc(C(=O)NCc2ccc(C(=O)O)cc2)cc1-c1ccc2[nH]ccc2c1	1.67%
O=c1nc(-c2ccccn2)sc2ccccc12	13.6%
Nc1nc(NCc2ccccc2)nc(-c2ccccc2CO)n1	18.9%
CC(=O)N1CCC(c2ccc(C(=O)NC3=NCCN3)cc2C(F)(F)F)CC1	-7.75%
NS(=O)(=O)c1cc(NC(=O)Cc2ccccc2)ccc1Oc1cccc(Cl)c1	0.87%
COc1cccc(NC(=O)c2nc3scc(CN(C)Cc4ccccc4)c3c(=O)[nH]2)c1	20.1%
CN(C)c1ncnc(-c2ccc3nc(Nc4cc(CN5CCN(C(=O)CC(F)(F)F)CC5)ccn4)[nH]c3c2)c1Cl	30.1%
NC(=O)c1ccc2nc(-c3ccc(C4(N)CCC4)cc3)c(-c3ccccc3)n2n1	22.6%
c1ccc(N2CCN(Cc3nc4ccccc4[nH]3)CC2)nc1	2.41%
C[C@@H](c1cccc(C#N)c1)n1cc(Cl)cc(C(N)=O)c1=N	-3.38%
COCCOc1nc(-c2ccc(Cl)nc2)nc2c1CN(C(=O)c1ncn3ccccc13)CC2	-6.15%
O=C(NS(=O)(=O)c1ccc(NCC2CCOCC2)c([N+](=O)[O-])c1)c1ccc(N2CCN(Cc3ccc(C(F)(F)F)cc3-c3ccc(Cl)cc3)CC2)cc1Oc1cnc2[nH]ccc2c1	-74.3%
O=C(NCCCC1CCCCC1)c1ccc(CNC(=O)c2cnn(-c3ccccc3)c2C(F)(F)F)cc1	2.65%

Series 4
SMILES: COc1ccc2[nH]c3c4[nH]c5ccc(OC)cc5c4c4c(c3c2c1)C(=O)NC4=O
target	test	conditions	remaining binding [%]
Phosphatidylinositol 4,5-bisphosphate 3-kinase catalytic subunit alpha isoform (PIK3CA, Homo sapiens, UniProt P42336, I800L)	binding	1 µM	93
Microtubule-associated serine/threonine-protein kinase 1 (MAST1, Homo sapiens, UniProt Q9Y2H9)	binding	1 µM	45
Proto-oncogene tyrosine-protein kinase receptor Ret (RET, Homo sapiens, UniProt P07949, V804M)	binding	1 µM	21
Serine/threonine-protein kinase pim-2 (PIM2, Homo sapiens, UniProt Q9P1W9)	binding	1 µM	0.5
Tyrosine-protein kinase ABL1, phosphorylated (ABL1, Homo sapiens, UniProt P00519)	binding, competition with immobilised ligand	1 µM	57
Serine/threonine-protein kinase VRK2 (VRK2, Homo sapiens, UniProt Q86Y07)	binding, competition with immobilised ligand	1 µM	98
Tyrosine-protein kinase Mer (MERTK, Homo sapiens, UniProt Q12866)	binding, competition with immobilised ligand	1 µM	19
Activin receptor type-1-like (ACVRL1, Homo sapiens, UniProt P37023)	binding, competition with immobilised ligand	1 µM	100
5'-AMP-activated protein kinase catalytic subunit alpha-1 (PRKAA1, Homo sapiens, UniProt Q13131)	binding, competition with immobilised ligand	1 µM	44
MAP kinase-activated protein kinase 5 (MAPKAPK5, Homo sapiens, UniProt Q8IW41)	binding	1 µM	90
Proto-oncogene tyrosine-protein kinase receptor Ret (RET, Homo sapiens, UniProt P07949)	binding, competition with immobilised ligand	1 µM	41
Proto-oncogene tyrosine-protein kinase receptor Ret (RET, Homo sapiens, UniProt P07949, V804L)	binding	1 µM	4.2
Cyclin-dependent kinase 19 (CDK19, Homo sapiens, UniProt Q9BWU1)	DiscoverX cell-free binding	1000 nM	100
LIM domain kinase 2 (LIMK2, Homo sapiens, UniProt P53671)	binding, competition with immobilised ligand	1 µM	81
Mitogen-activated protein kinase 10 (MAPK10, Homo sapiens, UniProt P53779)	binding	1 µM	31
Serine/threonine-protein kinase LATS1 (LATS1, Homo sapiens, UniProt O95835)	binding	1 µM	100

Some of these lines once more (series 3):
SMILES	inhibition
Nc1nc(NCc2ccccc2)nc(-c2ccccc2CO)n1	18.9%
NS(=O)(=O)c1cc(NC(=O)Cc2ccccc2)ccc1Oc1cccc(Cl)c1	0.87%
NC(=O)c1ccc2nc(-c3ccc(C4(N)CCC4)cc3)c(-c3ccccc3)n2n1	22.6%
Cc1ccccc1Oc1cc(-n2c(=O)cc(C(F)(F)F)[nH]c2=O)c2ccccc2c1Cl	8.85%
O=C(NCCCC1CCCCC1)c1ccc(CNC(=O)c2cnn(-c3ccccc3)c2C(F)(F)F)cc1	2.65%
COc1cc(N[C@@H]2CCCC[C@]2(O)C(F)(F)F)ccc1F	-0.75%
CC(=O)N1CCC(c2ccc(C(=O)NC3=NCCN3)cc2C(F)(F)F)CC1	-7.75%
